Assay results pooled from the literature.
Numbered parts are unrelated; each lists some results of a single study.
Sequence of UniProt P19525 (whole entry, looked up): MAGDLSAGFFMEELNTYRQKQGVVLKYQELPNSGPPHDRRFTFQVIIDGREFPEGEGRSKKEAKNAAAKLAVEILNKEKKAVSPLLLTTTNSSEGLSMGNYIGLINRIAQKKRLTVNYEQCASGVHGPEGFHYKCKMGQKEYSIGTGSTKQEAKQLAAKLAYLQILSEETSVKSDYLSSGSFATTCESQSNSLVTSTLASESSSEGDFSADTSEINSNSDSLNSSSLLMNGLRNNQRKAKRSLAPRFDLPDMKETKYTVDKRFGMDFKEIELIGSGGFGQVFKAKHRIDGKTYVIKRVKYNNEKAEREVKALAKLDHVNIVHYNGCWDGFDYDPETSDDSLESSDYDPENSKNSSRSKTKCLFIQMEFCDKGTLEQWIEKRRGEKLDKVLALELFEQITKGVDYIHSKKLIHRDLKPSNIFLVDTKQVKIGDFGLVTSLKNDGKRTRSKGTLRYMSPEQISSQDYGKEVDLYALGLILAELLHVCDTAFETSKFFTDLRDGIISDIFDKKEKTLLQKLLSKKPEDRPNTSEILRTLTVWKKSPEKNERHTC
Sequence of UniProt P36894 (whole entry, looked up): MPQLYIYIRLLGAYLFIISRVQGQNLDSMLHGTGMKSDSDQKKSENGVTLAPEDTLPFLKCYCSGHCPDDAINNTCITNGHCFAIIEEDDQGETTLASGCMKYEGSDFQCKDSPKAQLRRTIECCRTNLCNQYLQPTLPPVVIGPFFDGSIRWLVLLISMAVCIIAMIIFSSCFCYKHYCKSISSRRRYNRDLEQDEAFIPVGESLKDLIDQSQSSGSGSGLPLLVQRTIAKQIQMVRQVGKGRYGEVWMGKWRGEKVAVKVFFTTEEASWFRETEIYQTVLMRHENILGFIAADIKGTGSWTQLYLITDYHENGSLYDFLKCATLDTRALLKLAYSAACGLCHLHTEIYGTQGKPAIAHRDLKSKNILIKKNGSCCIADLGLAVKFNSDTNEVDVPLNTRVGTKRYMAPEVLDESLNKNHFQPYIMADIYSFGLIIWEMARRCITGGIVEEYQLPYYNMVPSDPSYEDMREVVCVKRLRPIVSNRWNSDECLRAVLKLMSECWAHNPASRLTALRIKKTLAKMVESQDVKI
Sequence of UniProt Q02750 (whole entry, looked up): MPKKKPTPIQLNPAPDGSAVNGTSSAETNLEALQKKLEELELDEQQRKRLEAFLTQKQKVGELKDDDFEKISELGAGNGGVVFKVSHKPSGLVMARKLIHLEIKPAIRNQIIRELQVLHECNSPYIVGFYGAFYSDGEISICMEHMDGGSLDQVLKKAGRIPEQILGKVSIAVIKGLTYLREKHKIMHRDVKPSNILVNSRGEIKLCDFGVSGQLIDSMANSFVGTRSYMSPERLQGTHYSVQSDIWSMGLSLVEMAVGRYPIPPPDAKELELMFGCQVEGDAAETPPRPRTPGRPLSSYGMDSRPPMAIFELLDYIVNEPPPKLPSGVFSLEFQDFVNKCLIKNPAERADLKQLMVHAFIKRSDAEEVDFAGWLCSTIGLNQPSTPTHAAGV
Sequence of UniProt O43318 (whole entry, looked up): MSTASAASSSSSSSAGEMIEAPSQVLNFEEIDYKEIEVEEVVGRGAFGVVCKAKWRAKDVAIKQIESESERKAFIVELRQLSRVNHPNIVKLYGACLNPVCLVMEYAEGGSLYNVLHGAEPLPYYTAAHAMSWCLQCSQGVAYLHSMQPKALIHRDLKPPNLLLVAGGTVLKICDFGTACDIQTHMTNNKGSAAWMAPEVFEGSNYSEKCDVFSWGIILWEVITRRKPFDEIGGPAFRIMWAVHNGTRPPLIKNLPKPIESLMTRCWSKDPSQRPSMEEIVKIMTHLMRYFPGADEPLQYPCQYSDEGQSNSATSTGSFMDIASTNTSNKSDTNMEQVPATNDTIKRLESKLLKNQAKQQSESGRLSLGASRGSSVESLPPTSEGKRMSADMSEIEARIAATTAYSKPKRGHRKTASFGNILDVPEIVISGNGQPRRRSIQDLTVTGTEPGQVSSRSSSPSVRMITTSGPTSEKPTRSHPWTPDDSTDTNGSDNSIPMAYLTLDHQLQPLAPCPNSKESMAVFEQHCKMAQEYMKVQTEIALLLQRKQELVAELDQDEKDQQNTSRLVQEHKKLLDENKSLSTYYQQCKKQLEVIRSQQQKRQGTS
Sequence of UniProt P52333 (whole entry, looked up): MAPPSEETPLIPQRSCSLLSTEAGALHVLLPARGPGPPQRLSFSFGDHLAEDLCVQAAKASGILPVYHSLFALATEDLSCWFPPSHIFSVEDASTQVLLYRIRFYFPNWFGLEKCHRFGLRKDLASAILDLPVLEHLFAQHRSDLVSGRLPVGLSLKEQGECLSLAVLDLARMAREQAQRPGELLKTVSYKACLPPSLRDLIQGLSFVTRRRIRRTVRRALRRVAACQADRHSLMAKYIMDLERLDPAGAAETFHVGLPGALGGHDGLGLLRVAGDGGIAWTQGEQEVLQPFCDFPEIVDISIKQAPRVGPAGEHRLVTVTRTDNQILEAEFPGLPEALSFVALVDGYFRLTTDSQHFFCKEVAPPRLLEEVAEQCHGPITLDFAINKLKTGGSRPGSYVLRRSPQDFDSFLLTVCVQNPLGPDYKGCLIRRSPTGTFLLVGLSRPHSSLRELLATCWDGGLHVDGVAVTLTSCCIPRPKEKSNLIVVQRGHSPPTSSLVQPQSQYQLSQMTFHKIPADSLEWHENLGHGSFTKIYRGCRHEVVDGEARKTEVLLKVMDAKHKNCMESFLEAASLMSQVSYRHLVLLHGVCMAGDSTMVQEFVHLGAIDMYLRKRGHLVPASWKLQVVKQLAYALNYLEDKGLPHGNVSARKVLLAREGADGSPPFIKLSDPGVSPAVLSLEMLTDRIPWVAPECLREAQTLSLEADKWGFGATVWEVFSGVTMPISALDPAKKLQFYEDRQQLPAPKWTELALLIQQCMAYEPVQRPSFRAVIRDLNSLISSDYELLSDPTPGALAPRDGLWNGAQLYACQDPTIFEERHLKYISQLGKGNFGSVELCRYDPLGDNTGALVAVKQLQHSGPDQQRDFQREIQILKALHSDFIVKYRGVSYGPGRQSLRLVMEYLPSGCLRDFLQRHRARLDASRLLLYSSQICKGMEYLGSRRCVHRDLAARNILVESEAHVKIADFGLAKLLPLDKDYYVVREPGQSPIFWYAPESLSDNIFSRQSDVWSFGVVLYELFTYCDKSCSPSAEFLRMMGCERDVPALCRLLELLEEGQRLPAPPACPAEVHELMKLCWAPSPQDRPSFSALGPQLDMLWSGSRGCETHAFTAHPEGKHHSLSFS
Sequence of UniProt Q15418 (whole entry, looked up): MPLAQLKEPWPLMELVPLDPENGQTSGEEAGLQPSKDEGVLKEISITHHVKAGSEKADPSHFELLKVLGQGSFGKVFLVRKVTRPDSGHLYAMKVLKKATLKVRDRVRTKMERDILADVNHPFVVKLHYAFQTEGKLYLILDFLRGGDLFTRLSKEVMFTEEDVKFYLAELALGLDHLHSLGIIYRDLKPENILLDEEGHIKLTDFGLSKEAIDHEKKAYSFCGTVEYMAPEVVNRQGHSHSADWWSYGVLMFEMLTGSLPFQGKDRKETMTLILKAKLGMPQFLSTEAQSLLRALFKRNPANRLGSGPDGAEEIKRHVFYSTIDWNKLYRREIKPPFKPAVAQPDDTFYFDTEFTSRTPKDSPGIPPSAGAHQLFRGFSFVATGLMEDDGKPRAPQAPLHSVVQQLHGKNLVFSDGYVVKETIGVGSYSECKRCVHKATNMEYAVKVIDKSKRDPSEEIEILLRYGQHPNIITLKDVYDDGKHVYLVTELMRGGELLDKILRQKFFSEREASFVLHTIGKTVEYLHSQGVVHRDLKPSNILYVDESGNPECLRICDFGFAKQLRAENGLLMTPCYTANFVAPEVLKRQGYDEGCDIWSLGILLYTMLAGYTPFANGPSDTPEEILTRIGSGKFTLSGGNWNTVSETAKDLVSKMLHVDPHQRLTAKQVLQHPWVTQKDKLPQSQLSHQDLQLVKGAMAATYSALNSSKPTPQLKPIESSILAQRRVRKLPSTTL
Sequence of UniProt Q86Y07 (whole entry, looked up): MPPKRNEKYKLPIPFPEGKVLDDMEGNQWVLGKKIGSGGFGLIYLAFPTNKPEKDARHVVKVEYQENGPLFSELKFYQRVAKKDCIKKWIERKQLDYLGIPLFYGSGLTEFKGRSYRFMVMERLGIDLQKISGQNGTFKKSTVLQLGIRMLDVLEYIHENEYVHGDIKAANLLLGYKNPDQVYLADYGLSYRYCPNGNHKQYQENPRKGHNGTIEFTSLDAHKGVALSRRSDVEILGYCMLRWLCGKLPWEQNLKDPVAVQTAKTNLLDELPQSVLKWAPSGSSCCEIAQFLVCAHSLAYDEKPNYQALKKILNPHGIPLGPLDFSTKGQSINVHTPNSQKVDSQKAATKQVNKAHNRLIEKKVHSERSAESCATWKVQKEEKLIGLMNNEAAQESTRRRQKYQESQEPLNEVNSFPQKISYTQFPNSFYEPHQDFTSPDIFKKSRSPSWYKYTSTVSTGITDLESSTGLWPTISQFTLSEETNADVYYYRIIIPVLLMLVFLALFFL

Series 1
Target: Beta-1 adrenergic receptor (ADRB1, Homo sapiens, UniProt P08588)
Sequence of UniProt P08588 (whole entry, looked up): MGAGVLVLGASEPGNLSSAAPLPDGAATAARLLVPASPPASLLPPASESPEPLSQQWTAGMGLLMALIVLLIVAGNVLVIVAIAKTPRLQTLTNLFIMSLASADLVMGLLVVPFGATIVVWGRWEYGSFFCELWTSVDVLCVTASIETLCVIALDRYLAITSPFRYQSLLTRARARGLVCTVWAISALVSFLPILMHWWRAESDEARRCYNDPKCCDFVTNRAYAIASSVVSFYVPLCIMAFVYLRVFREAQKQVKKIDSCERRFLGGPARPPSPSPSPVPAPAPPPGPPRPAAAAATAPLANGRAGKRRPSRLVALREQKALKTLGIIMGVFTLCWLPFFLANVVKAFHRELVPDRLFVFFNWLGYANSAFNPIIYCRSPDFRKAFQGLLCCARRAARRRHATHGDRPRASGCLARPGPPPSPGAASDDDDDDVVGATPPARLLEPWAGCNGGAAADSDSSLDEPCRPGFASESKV
Mode: antagonist
Structure (SMILES) | IC50
CCCN(CCc1ccccc1)C1CCc2c(O)cccc2C1 (centres unmarked) | ≥ 100 µM
Cc1ccc2c(CSc3nnnn3Cc3ccco3)cc(=O)oc2c1 | ≥ 100 µM
Nc1nc2c(ncn2C2OC3COP(=O)(O)OC3C2O)c(=O)[nH]1 (centres unmarked) | ≥ 100 µM
CC(C)Cc1cc(CC2(NCc3ccc(N(C)C)cc3)COC2)no1 | ≥ 100 µM
COc1cc(CNC(C)C)ccc1OCC(O)CN1CCSCC1 (centres unmarked) | ≥ 100 µM
O=C1c2cnc(-c3cn[nH]c3)nc2OCCN1Cc1ccc(F)cc1F | ≥ 100 µM
OCc1n[nH]c2c1CN(Cc1cccc(OCC(O)CN3CCOCC3)c1)CC2 (centres unmarked) | ≥ 100 µM
CN(C)CC(O)COc1ccc(CN2CCC(N3CCOC3=O)CC2)cc1 (centres unmarked) | ≥ 100 µM
O=c1c2cc(-c3ccc(F)cc3)nn2ccn1CC(O)c1ccc2c(c1)OCO2 (centres unmarked) | ≥ 100 µM
c1ccc2nc(C3=NCCN3)ccc2c1 | ≥ 100 µM
Cn1cc(-c2cnc(Nc3cccnc3)c3c2CCO3)cn1 | ≥ 100 µM

Series 2
Host: mouse
Matrix: microsomes or S9
Concentration: 2 µM
Time: 0.5 h
Structure (SMILES) | remaining compound [%]
CCC(C)c1ccc(O)c(NC(=O)c2nccnc2C(=O)O)c1 (centres unmarked) | > 100
Nc1ccc(Sc2nccc(-c3cccs3)n2)cc1 | 44.9
COc1cc(=O)n(C)cc1C(=O)N1CCC(n2cc(-c3ccccc3)nn2)C1 (centres unmarked) | 91.4
COC(=O)c1cc(OC)c(OC)cc1NC(=O)c1c(Br)cnn1C | 3.65
CC(Nc1ncnc2c1NC(=O)CN2)c1cc2ccccc2nc1-c1ccccc1 (centres unmarked) | 0.882
Brc1ccccc1Cn1c(-c2ccc(Oc3ccccc3)cc2)cn2ncnc12 | 0.0336
Nc1nc(N2C(=O)C3CC=CCC3C2=O)nn1-c1ccccc1 (centres unmarked) | 75.3
Fc1ccccc1C(c1nnc(-c2ccccc2)o1)N1CCc2ccccc2C1 (centres unmarked) | 2.46
C[C@@H](C(=O)NOC(C)(C)C)N1C(=O)Nc2cc(Cl)cc(Cl)c2S1(=O)=O | 61.2
CCn1[nH]cc/c1=N\C(=O)c1nn(-c2ccccc2)c(=O)c2ccccc12 | 35.6
CCCc1cc(N2CCC3(CCC(=O)N(CCc4c[nH]cn4)C3)CC2)nc(C)n1 | 90.7

Series 3
SMILES: O=C(Nc1cnn(-c2csc(C(=O)NC3COC3)c2)c1)Nc1ccccc1Cl
Read-out: enzyme activity
Concentration: 5 µM
Relative to: untreated control
target | remaining activity
Inhibitor of nuclear factor kappa-B kinase subunit epsilon (IKBKE, Homo sapiens, UniProt Q14164) | 108%
PAS domain-containing serine/threonine-protein kinase (PASK, Homo sapiens, UniProt Q96RG2) | 94.2%
Ribosomal protein S6 kinase alpha-1 (RPS6KA1, Homo sapiens, UniProt Q15418) | 91.4%
Dual specificity mitogen-activated protein kinase kinase 1 (MAP2K1, Homo sapiens, UniProt Q02750) | 102%
Calcium/calmodulin-dependent protein kinase kinase 1 (CAMKK1, Homo sapiens, UniProt Q8N5S9) | 129%
Mitogen-activated protein kinase kinase kinase kinase 4 (MAP4K4, Homo sapiens, UniProt O95819) | 80.1%
Epidermal growth factor receptor (EGFR, Homo sapiens, UniProt P00533) | 98.7%
Mitogen-activated protein kinase kinase kinase 7 (MAP3K7, Homo sapiens, UniProt O43318) | 97.8%
Mitogen-activated protein kinase kinase kinase 20 (MAP3K20, Homo sapiens, UniProt Q9NYL2) | 98.5%

Series 4
Structure (SMILES): Cc1cc(NC(=O)c2cccc(S(F)(F)(F)(F)F)c2)cc(-n2ccn3nc(-c4cccnc4)cc23)c1
Concentration: 1 µM
target | test | remaining binding [%]
Proto-oncogene tyrosine-protein kinase receptor Ret (RET, Homo sapiens, UniProt P07949, M918T) | cell-free assay, competition with immobilised ligand | 100
Serine/threonine-protein kinase ICK (CILK1, Homo sapiens, UniProt Q9UPZ9) | cell-free assay, competition with immobilised ligand | 64.2
Ephrin type-A receptor 1 (EPHA1, Homo sapiens, UniProt P21709) | cell-free assay, competition with immobilised ligand | 100
Serine/threonine-protein kinase WNK4 (WNK4, Homo sapiens, UniProt Q96J92) | cell-free assay, competition with immobilised ligand | 100
Serine/threonine-protein kinase SIK1 (SIK1, Homo sapiens, UniProt P57059) | competition binding | 100
Wee1-like protein kinase 2 (WEE2, Homo sapiens, UniProt P0C1S8) | cell-free assay, competition with immobilised ligand | 100
Calcium/calmodulin-dependent protein kinase type 1 (CAMK1, Homo sapiens, UniProt Q14012) | cell-free assay, competition with immobilised ligand | 77.9
Interferon-induced, double-stranded RNA-activated protein kinase (EIF2AK2, Homo sapiens, UniProt P19525) | cell-free assay, competition with immobilised ligand | 72.7
Tyrosine-protein kinase Lyn (LYN, Homo sapiens, UniProt P07948) | cell-free assay, competition with immobilised ligand | 100
Serine/threonine-protein kinase VRK2 (VRK2, Homo sapiens, UniProt Q86Y07) | cell-free assay, competition with immobilised ligand | 100
Tyrosine-protein kinase JAK3, JH1 (JAK3, Homo sapiens, UniProt P52333) | cell-free assay, competition with immobilised ligand | 96.9
MAP kinase-interacting serine/threonine-protein kinase 1 (MKNK1, Homo sapiens, UniProt Q9BUB5) | cell-free assay, competition with immobilised ligand | 100
Cyclin-G-associated kinase (GAK, Homo sapiens, UniProt O14976) | cell-free assay, competition with immobilised ligand | 100
Serine/threonine-protein kinase 32A (STK32A, Homo sapiens, UniProt Q8WU08) | cell-free assay, competition with immobilised ligand | 100
Interleukin-1 receptor-associated kinase 3 (IRAK3, Homo sapiens, UniProt Q9Y616) | cell-free assay, competition with immobilised ligand | 100
Epidermal growth factor receptor (EGFR, Homo sapiens, UniProt P00533, A750P/del747-749) | cell-free assay, competition with immobilised ligand | 98.7
Serine/threonine-protein kinase Sgk2 (SGK2, Homo sapiens, UniProt Q9HBY8) | cell-free assay, competition with immobilised ligand | 100
Serine/threonine-protein kinase TNNI3K (TNNI3K, Homo sapiens, UniProt Q59H18) | cell-free assay, competition with immobilised ligand | 100
Bone morphogenetic protein receptor type-1A (BMPR1A, Homo sapiens, UniProt P36894) | cell-free assay, competition with immobilised ligand | 94.4
Activin receptor type-2A (ACVR2A, Homo sapiens, UniProt P27037) | cell-free assay, competition with immobilised ligand | 100
Serine/threonine-protein kinase Nek6 (NEK6, Homo sapiens, UniProt Q9HC98) | cell-free assay, competition with immobilised ligand | 97
Ribosomal protein S6 kinase alpha-3, C-terminal kinase domain (RPS6KA3, Homo sapiens, UniProt P51812) | cell-free assay, competition with immobilised ligand | 89
cGMP-dependent protein kinase 2 (PRKG2, Homo sapiens, UniProt Q13237) | cell-free assay, competition with immobilised ligand | 100
Serine/threonine-protein kinase Nek7 (NEK7, Homo sapiens, UniProt Q8TDX7) | cell-free assay, competition with immobilised ligand | 100
MAP kinase-activated protein kinase 5 (MAPKAPK5, Homo sapiens, UniProt Q8IW41) | cell-free assay, competition with immobilised ligand | 100

Excerpt of the above (series 1):
Structure (SMILES) | IC50
CN(C)CC(O)COc1ccc(CN2CCC(N3CCOC3=O)CC2)cc1 (centres unmarked) | ≥ 100 µM
CCCN(CCc1ccccc1)C1CCc2c(O)cccc2C1 (centres unmarked) | ≥ 100 µM
Nc1nc2c(ncn2C2OC3COP(=O)(O)OC3C2O)c(=O)[nH]1 (centres unmarked) | ≥ 100 µM
O=c1c2cc(-c3ccc(F)cc3)nn2ccn1CC(O)c1ccc2c(c1)OCO2 (centres unmarked) | ≥ 100 µM
Cn1cc(-c2cnc(Nc3cccnc3)c3c2CCO3)cn1 | ≥ 100 µM
O=C1c2cnc(-c3cn[nH]c3)nc2OCCN1Cc1ccc(F)cc1F | ≥ 100 µM
CC(C)Cc1cc(CC2(NCc3ccc(N(C)C)cc3)COC2)no1 | ≥ 100 µM
c1ccc2nc(C3=NCCN3)ccc2c1 | ≥ 100 µM
Cc1ccc2c(CSc3nnnn3Cc3ccco3)cc(=O)oc2c1 | ≥ 100 µM
